Experimental data from different studies.
Every numbered part comes from another study and shows a few of its results, in no order.

Block 1
Target: Ras GTPase-activating protein-binding protein 1, RRM domain (G3BP1, Homo sapiens, UniProt Q13283)
UniProt Q13283, sequence (whole entry, looked up): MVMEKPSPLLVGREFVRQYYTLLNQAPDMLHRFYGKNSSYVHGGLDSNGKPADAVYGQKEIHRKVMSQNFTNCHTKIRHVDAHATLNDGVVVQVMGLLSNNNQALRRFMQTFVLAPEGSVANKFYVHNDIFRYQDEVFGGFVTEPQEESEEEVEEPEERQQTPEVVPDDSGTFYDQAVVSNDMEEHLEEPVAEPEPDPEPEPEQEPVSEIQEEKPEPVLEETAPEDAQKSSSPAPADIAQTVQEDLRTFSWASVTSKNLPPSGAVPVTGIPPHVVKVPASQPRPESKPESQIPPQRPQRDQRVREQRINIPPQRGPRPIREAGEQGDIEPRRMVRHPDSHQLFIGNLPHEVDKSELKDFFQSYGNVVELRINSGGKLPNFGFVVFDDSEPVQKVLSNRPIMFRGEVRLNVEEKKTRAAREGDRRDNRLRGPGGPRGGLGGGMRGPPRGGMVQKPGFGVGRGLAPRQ
Method: RNA Bind-n-Seq
Form: RNA
Sample: in vitro
Concentration: 1 µM
Setting: whole 134-nt RNA, ends assumed
With: 150 mM KCl
Baseline: input library
Direction: higher = stronger binding
Oligonucleotide | log2 enrichment
GGGAGUUCUACAGUCCGACGAUCCACAGACAACACGCACCCACACAGACACAGAGGGAAGGGGUUGGGAUGGGGACAGGGUGCACAGCAGGGCGGGGUAGUACCCCAGCCCCUUGGAAUUCUCGGGUGUCAAGG | -0.275
GGGAGUUCUACAGUCCGACGAUCUCCUGUGCUACACAUCGUAUGUACCGAAUCAAACCCAAACCCCCCCAAAUUUUUUUAAAAAAGUAUUAUGUUACGCCGUUCGGAUCUGCAUGGAAUUCUCGGGUGUCAAGG | -0.239
GGGAGUUCUACAGUCCGACGAUCUGGCCCUGGUGGCAUGCGGGGAGGAAGAGGUGGCCUCAUGGAUCGUGGUGGUCCCGGUGGAAUGUUCAGAGGUGGCCGUGGUGGAAACAGUGGAAUUCUCGGGUGUCAAGG | 1.92

Block 2
Target: Histone acetyltransferase KAT6A, both winged helices, GST fusion (KAT6A, Homo sapiens, UniProt Q92794, residues 1-181)
Method: protein binding microarray
Form: double-stranded DNA, one strand shown
Sample: in vitro
Concentration: not given
Setting: 8-mer, flanks averaged, mean of 2 arrays, mostly near background
Baseline: not given
Direction: higher = stronger binding
Residues (chain): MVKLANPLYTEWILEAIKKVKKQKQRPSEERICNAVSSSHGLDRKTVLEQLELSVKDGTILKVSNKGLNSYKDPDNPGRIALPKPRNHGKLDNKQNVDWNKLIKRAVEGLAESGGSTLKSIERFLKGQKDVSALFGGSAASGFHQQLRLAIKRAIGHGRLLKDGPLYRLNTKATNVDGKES
Oligonucleotide | E-score
CGACCTAA | 0.0236
AGAACTAT | -0.133
ATTCTGAA | -0.0323
ATATAAAG | -0.0645

Block 3
Target: Sal-like protein 4, full length isoform B (SALL4, Homo sapiens, UniProt Q9UJQ4-2, residues 1-616)
Method: universal PBM
Form: double-stranded DNA, one strand shown
Sample: in vitro
Concentration: not given
Setting: 8-mer, flanks averaged, mean of replicates
Direction: higher = stronger binding
Oligonucleotide | E-score
CACTAGGG | -0.293
ACCCAGTC | -0.156
AGCATGTC | -0.0324
CCGACATA | -0.0476
AATCAAGT | 0.091

Other studies, line by line
Molecule | target | test | system | setting | scale | endpoint | value
PhoQ, residues 284 288 289 292 302 303 SLANKL | PhoP, residues 12 14 15 18 19 NNFVT (Escherichia coli, UniProt P23836) | Sort-seq, refers to: YFP reporter | E. coli | PhoQ-PhoP variant library, with: 10 µM Mg2+ | baseline: high Mg2+ state, higher = stronger signaling | fold induction | 14.7

Repeated from above (block 1):
Oligonucleotide | log2 enrichment
GGGAGUUCUACAGUCCGACGAUCUCCUGUGCUACACAUCGUAUGUACCGAAUCAAACCCAAACCCCCCCAAAUUUUUUUAAAAAAGUAUUAUGUUACGCCGUUCGGAUCUGCAUGGAAUUCUCGGGUGUCAAGG | -0.239
GGGAGUUCUACAGUCCGACGAUCUGGCCCUGGUGGCAUGCGGGGAGGAAGAGGUGGCCUCAUGGAUCGUGGUGGUCCCGGUGGAAUGUUCAGAGGUGGCCGUGGUGGAAACAGUGGAAUUCUCGGGUGUCAAGG | 1.92
